Published values of several laboratories.
Numbered parts are unrelated; each lists some results of a single study. “And” joins repeats or separate records; there may be more than shown.
Sequence of UniProt P00519 (whole entry, looked up): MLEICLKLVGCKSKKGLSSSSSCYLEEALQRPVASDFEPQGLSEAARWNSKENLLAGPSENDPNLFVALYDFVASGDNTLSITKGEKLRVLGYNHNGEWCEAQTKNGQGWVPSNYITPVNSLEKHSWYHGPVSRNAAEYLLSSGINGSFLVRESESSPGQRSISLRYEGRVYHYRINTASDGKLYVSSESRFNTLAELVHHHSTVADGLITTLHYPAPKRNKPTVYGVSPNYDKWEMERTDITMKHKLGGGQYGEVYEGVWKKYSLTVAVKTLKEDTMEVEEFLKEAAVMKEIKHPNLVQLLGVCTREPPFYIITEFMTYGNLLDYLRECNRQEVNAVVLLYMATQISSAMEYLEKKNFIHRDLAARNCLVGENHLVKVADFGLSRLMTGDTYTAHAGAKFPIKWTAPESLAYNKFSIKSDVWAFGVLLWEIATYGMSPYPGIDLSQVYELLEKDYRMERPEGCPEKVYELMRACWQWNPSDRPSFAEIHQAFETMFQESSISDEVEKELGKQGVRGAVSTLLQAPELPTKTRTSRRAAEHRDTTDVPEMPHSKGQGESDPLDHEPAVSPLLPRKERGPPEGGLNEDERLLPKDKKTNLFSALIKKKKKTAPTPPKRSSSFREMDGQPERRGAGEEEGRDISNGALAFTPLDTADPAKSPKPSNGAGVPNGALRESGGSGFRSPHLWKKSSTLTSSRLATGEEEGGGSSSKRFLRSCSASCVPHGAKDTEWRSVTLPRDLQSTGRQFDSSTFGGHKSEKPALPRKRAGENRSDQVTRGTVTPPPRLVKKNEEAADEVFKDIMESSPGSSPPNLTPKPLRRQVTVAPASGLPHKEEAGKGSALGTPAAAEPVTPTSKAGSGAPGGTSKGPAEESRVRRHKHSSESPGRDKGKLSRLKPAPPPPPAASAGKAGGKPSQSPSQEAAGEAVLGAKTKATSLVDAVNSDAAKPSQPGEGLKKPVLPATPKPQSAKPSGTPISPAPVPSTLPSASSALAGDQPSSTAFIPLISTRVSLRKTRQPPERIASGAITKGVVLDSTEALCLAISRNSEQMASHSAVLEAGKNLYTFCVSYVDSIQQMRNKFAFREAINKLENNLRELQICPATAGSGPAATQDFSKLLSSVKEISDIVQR
Sequence of UniProt P54762 (whole entry, looked up): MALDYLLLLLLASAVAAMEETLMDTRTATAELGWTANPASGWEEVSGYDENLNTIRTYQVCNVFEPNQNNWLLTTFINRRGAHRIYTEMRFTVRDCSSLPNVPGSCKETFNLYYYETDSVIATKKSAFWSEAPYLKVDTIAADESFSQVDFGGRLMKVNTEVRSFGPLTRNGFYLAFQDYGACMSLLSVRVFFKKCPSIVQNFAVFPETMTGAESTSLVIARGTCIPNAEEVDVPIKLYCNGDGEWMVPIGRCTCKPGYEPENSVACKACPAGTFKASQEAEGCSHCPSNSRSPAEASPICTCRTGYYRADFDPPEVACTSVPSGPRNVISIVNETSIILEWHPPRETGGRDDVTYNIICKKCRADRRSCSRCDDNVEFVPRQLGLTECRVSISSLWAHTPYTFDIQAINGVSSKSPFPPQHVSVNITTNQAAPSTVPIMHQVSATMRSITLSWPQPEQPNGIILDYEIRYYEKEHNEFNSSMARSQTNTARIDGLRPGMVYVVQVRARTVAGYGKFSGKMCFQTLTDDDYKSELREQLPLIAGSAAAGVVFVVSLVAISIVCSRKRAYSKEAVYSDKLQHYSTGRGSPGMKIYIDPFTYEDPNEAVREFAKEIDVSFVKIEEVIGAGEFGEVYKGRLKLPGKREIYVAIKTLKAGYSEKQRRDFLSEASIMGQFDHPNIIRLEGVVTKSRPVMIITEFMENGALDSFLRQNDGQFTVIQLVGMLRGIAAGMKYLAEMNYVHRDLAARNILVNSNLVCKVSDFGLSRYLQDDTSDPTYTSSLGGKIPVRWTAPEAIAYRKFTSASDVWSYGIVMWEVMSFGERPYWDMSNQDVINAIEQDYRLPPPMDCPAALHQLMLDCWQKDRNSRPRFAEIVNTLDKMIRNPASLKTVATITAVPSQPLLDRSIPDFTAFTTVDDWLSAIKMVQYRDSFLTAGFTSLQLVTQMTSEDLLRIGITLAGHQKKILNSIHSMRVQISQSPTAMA
Sequence of UniProt P22612 (whole entry, looked up): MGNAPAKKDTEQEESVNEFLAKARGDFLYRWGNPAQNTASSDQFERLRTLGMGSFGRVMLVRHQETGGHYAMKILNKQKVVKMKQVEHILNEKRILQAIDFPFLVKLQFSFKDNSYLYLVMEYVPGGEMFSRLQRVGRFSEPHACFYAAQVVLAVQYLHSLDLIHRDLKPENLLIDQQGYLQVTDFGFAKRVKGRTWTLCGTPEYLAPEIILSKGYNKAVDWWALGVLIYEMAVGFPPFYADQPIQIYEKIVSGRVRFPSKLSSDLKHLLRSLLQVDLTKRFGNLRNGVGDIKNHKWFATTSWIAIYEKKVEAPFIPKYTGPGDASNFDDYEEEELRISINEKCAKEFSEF

Sample 1 — SMILES: O=C1Cc2c([nH]c3ccc(Br)cc23)-c2ccccc2N1; effect on: enzyme activity; mode: inhibitor; concentration: 0.5 µM; reference: control
target	remaining activity [%]
MAP kinase-activated protein kinase 3 (MAPKAPK3, Homo sapiens, UniProt Q16644)	100
Tyrosine-protein kinase receptor UFO (AXL, Homo sapiens, UniProt P30530)	101
Ephrin type-A receptor 4 (EPHA4, Homo sapiens, UniProt P54764)	96.1
Cyclin-dependent kinase 4, with cyclin D3 (CDK4, Homo sapiens, UniProt P11802)	89
3-phosphoinositide-dependent protein kinase 1 (PDPK1, Homo sapiens, UniProt O15530)	94.9
Serine/threonine-protein kinase 17A (STK17A, Homo sapiens, UniProt Q9UEE5)	102
Serine/threonine-protein kinase 16 (STK16, Homo sapiens, UniProt O75716)	98.9
cAMP-dependent protein kinase catalytic subunit gamma (PRKACG, Homo sapiens, UniProt P22612)	105
Mitogen-activated protein kinase kinase kinase kinase 4 (MAP4K4, Homo sapiens, UniProt O95819)	6.61
Tyrosine-protein kinase Srms (SRMS, Homo sapiens, UniProt Q9H3Y6)	105
Cyclin-dependent kinase 6, with cyclin D3 (CDK6, Homo sapiens, UniProt Q00534)	94.4
Homeodomain-interacting protein kinase 2 (HIPK2, Homo sapiens, UniProt Q9H2X6)	107
Cyclin-dependent kinase 1, with cyclin B (CDK1, Homo sapiens, UniProt P06493)	80.6
Serine/threonine-protein kinase WNK3 (WNK3, Homo sapiens, UniProt Q9BYP7)	95.5
Phosphorylase b kinase gamma catalytic chain, skeletal muscle/heart isoform (PHKG1, Homo sapiens, UniProt Q16816)	49.7
Tyrosine-protein kinase ABL1 (ABL1, Homo sapiens, UniProt P00519)	82.6
Ribosomal protein S6 kinase alpha-5 (RPS6KA5, Homo sapiens, UniProt O75582)	99.6
Ephrin type-B receptor 1 (EPHB1, Homo sapiens, UniProt P54762)	93.5
Ephrin type-B receptor 4 (EPHB4, Homo sapiens, UniProt P54760)	100
Dual specificity tyrosine-phosphorylation-regulated kinase 3 (DYRK3, Homo sapiens, UniProt O43781)	113
Ribosomal protein S6 kinase alpha-6 (RPS6KA6, Homo sapiens, UniProt Q9UK32)	95.9
Calcium/calmodulin-dependent protein kinase type II subunit beta (CAMK2B, Homo sapiens, UniProt Q13554)	97.8
Homeodomain-interacting protein kinase 4 (HIPK4, Homo sapiens, UniProt Q8NE63)	105
Testis-specific serine/threonine-protein kinase 2 (TSSK2, Homo sapiens, UniProt Q96PF2)	99.3

Sample 2 — effect on: cell-free assay; method: competition with immobilised ligand; concentration: 1 µM
SMILES: CN(C(=O)c1ccccc1)c1cc(N(C)c2ccc3c(c2)CCc2ccc(C(=O)NCCN4CCOCC4)cc2C3=O)ccc1F
target	remaining binding
Epidermal growth factor receptor (EGFR, Homo sapiens, UniProt P00533, del752-759)	100%
Homeodomain-interacting protein kinase 1 (HIPK1, Homo sapiens, UniProt Q86Z02)	94%
1-phosphatidylinositol 3-phosphate 5-kinase (PIKFYVE, Homo sapiens, UniProt Q9Y2I7)	63%
Epidermal growth factor receptor (EGFR, Homo sapiens, UniProt P00533, G719S)	70%
Cyclin-dependent kinase-like 5 (CDKL5, Homo sapiens, UniProt O76039)	100%
Tyrosine-protein kinase ABL1, non-phosphorylated (ABL1, Homo sapiens, UniProt P00519)	87%
Serine/threonine-protein kinase BRSK1 (BRSK1, Homo sapiens, UniProt Q8TDC3)	88%
Serine/threonine-protein kinase Nek11 (NEK11, Homo sapiens, UniProt Q8NG66)	100%
Cytoplasmic tyrosine-protein kinase BMX (BMX, Homo sapiens, UniProt P51813)	50%
Serine/threonine-protein kinase DCLK3 (DCLK3, Homo sapiens, UniProt Q9C098)	87%
Mast/stem cell growth factor receptor Kit (KIT, Homo sapiens, UniProt P10721)	100%
Serine/threonine-protein kinase PLK2 (PLK2, Homo sapiens, UniProt Q9NYY3)	91%
Ephrin type-B receptor 1 (EPHB1, Homo sapiens, UniProt P54762)	96%
cGMP-dependent protein kinase 1 (PRKG1, Homo sapiens, UniProt Q13976)	67%
Casein kinase I isoform alpha (CSNK1A1, Homo sapiens, UniProt P48729)	100%
RAC-alpha serine/threonine-protein kinase (AKT1, Homo sapiens, UniProt P31749)	100%

Sample 3 — effect on: enzyme activity; mode: inhibitor; concentration: 77 µM; reference: untreated
Target: DNA polymerase theta, ATPase domain (POLQ, Homo sapiens, UniProt O75417)
Sequence of UniProt O75417 (whole entry, unmodified, looked up): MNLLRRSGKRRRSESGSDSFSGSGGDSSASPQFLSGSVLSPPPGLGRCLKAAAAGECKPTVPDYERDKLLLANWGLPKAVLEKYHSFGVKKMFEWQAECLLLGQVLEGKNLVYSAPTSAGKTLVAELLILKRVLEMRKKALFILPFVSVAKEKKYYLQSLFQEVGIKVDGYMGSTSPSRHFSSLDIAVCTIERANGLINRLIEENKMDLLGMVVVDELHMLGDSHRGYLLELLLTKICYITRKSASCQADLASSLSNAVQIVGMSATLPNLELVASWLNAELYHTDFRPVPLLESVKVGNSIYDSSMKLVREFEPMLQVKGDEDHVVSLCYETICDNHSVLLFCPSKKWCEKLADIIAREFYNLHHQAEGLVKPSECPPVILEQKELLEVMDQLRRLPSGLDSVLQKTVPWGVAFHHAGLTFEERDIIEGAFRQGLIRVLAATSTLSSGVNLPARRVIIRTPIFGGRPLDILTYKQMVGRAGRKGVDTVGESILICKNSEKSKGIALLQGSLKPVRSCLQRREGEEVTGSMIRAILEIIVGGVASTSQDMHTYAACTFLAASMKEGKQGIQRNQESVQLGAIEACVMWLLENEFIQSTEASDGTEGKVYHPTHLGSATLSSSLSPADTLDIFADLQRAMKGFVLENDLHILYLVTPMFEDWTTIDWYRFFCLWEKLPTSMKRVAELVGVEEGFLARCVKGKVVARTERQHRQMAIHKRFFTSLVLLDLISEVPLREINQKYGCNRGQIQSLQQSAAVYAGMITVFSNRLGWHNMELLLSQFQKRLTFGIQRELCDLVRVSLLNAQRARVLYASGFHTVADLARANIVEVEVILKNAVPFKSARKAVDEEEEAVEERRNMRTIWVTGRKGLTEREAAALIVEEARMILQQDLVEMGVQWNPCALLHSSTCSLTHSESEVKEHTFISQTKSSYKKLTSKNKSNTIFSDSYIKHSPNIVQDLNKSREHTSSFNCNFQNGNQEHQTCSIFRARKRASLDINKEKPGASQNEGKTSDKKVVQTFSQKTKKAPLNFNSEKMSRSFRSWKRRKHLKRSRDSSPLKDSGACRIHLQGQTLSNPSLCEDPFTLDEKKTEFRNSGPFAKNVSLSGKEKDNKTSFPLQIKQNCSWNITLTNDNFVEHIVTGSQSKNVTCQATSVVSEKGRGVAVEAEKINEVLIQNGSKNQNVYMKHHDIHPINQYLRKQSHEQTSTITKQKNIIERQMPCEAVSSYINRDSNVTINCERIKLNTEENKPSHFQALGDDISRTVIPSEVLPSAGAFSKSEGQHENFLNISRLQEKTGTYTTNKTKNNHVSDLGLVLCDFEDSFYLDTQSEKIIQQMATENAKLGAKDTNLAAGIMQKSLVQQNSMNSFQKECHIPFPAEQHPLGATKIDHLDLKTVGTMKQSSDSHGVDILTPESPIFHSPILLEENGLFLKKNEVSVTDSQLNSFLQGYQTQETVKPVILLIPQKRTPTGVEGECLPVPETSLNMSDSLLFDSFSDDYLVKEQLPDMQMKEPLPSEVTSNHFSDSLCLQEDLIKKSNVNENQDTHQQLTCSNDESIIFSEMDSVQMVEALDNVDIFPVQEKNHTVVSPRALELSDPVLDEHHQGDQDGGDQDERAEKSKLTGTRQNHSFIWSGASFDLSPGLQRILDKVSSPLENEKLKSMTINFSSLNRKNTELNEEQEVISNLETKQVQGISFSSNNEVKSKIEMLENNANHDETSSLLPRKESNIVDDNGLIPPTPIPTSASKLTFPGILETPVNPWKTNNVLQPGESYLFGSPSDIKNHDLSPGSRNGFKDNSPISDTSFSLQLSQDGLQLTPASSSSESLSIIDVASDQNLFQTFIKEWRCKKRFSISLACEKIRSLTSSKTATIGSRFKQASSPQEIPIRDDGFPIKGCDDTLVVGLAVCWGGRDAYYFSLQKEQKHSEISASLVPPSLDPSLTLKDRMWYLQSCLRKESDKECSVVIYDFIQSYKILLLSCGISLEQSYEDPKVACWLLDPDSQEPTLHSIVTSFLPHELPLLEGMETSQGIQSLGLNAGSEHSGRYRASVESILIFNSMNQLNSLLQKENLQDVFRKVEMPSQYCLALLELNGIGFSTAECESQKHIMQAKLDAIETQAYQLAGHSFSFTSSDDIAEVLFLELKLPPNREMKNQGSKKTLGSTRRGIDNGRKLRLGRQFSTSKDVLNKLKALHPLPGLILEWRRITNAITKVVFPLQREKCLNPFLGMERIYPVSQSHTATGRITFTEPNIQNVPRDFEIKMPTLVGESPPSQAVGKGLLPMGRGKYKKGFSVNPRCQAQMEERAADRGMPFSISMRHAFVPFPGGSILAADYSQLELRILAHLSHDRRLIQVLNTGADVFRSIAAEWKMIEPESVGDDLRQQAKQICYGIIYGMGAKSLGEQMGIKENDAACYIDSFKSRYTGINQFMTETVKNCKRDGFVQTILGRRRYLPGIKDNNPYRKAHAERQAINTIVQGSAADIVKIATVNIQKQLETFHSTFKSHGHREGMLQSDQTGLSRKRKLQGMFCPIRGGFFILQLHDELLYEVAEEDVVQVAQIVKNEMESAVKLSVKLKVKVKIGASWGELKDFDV
SMILES	remaining activity
CN1CCc2nc(C(=O)N[C@@H]3C[C@@H](C(=O)N(C)C)CC[C@@H]3NC(=O)C(=O)Nc3ccc(Cl)cn3)sc2C1	102%
O=C1NC(=O)C(c2cn(CCCO)c3ncccc23)=C1c1cnccn1	99.5%
CO[C@H]1C(=O)[C@]2(C)[C@@H](OC)C[C@H]3OC[C@@]3(OC(C)=O)[C@H]2[C@H](OC(=O)c2ccccc2)[C@]2(O)C[C@H](OC(=O)[C@H](O)[C@@H](NC(=O)OC(C)(C)C)c3ccccc3)C(C)=C1C2(C)C	107%
CC[N+](CC)(CC)CCC(O)(c1ccccc1)C1CCCCC1 (stereo not drawn)	96.5%
CCC1=C(C)CN(C(=O)NCCc2ccc(S(=O)(=O)NC(=O)N[C@H]3CC[C@H](C)CC3)cc2)C1=O	97.9% and 104%
COc1ccnc2[nH]cc(C(=O)C(=O)N3CCN(C(=O)c4ccccc4)C[C@H]3C)c12	97.1%
Cn1c(=O)c2c(nc(/C=C/c3cccc(Cl)c3)n2C)n(C)c1=O	93.3%
COc1cc(NC(=O)c2ccc(-c3ccc(Cl)cc3)o2)cc(OC)c1	96.9%

Sample 4
Compound: CC(C)n1cnc(-c2ccc(F)cc2)c1-c1ncc(C(=O)Nc2ccc(N3CCN(C)CC3)cc2)[nH]1
assay	system	conditions	patients with adverse event [%]
Phase 2a trial, refers to: hypertriglyceridaemia	human, idiopathic pulmonary fibrosis	60 mg once daily, grade 4	0
Phase 2a trial, refers to: blood pressure increased	human, idiopathic pulmonary fibrosis	30 mg once daily, grade 1	0
Phase 2a trial, refers to: hypertriglyceridaemia	human, idiopathic pulmonary fibrosis	all compound arms total, grade 2	0
refers to: periorbital oedema, grade 3	idiopathic pulmonary fibrosis patients	dose not given, all compound arms pooled	0
Phase 2a trial, refers to: blood urea increased	human, idiopathic pulmonary fibrosis	30 mg once daily, grade 2	0
Phase 2a trial, refers to: blood pressure increased	human, idiopathic pulmonary fibrosis	60 mg once daily, grade 5	0
Phase 2a trial, refers to: hypocalcaemia	human, idiopathic pulmonary fibrosis	all compound arms total, grade 5	0
Phase 2a trial, refers to: haemoptysis	human, idiopathic pulmonary fibrosis	30 mg once daily, grade 3	0
Phase 2a trial, refers to: hyperuricaemia	human, idiopathic pulmonary fibrosis	30 mg once daily, grade 5	0
refers to: skin papilloma, maximum grade 1	idiopathic pulmonary fibrosis patients	dose not given, all compound arms pooled	0
Phase 2a trial, refers to: hepatic steatosis	human, idiopathic pulmonary fibrosis	30 mg once daily, grade 1	0
Phase 2a trial, refers to: eosinophilia myalgia syndrome	human, idiopathic pulmonary fibrosis	60 mg once daily, grade 3	0
